Published values of several laboratories.
Every numbered part comes from another study and shows a few of its results, in no order.

Block 1 — method: protein-binding microarray; form: double-stranded DNA, one strand shown; medium: in vitro; tested at: 2200 nM top; notes: 60-bp whole probe; with: salmon DNA 0.4 mg/ml; baseline: random background probes; reading: higher = stronger binding; shared flanks, not repeated: GCCTAGCAC … GTCTTGATTCGCTTGACGCTGCTG
Target: Interferon regulatory factor 7, full length, phosphomimetic (IRF7, Homo sapiens, UniProt Q92985, residues 1-503, S471D/S472D/S475D/S476D/S477D/S483D/S484D/S487D)
Residues (chain): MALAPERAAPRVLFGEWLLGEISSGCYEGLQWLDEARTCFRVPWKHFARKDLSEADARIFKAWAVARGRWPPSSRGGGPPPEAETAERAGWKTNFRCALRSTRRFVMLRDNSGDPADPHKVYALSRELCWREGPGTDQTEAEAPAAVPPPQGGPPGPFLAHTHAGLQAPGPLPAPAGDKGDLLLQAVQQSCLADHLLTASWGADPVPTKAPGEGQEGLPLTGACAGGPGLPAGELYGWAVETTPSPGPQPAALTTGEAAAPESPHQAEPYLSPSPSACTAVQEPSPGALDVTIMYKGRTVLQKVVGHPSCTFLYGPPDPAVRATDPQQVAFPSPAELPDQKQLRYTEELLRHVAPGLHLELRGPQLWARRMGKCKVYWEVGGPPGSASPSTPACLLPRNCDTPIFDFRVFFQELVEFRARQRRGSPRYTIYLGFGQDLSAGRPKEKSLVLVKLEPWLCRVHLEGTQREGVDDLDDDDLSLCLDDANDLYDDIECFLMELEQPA
`TTAGATTTCGACTATCGGTTAGTGCTA`: “fitted relative affinity” 1.63 z-score.
Under “fitted relative affinity”, `TTAGATCTCAGTATCGATTTGTGCTAG` is recorded as 0.971 z-score.
For `CTAGATATCGGGACTGGATTAGTGCTA`, “fitted relative affinity” read -0.0208 z-score.
Under “fitted relative affinity”, `TCAAACATCATTTTTCCACTGTGCTAG` is recorded as 1.08 z-score.
`GACGCTTTCGGGACTGGAGACGTGCTA` — result for “fitted relative affinity”: 4.31 z-score.
Under “fitted relative affinity”, `TATTTTTTTGTAATCGAAATGTGCTAG` is recorded as 0.78 z-score.
`GACCGACTGCTACTGCTGACGTGCTAG`: “fitted relative affinity” -0.174 z-score.
`TTAGATTTCGGGCTTCGATTAGTGCTA` — result for “fitted relative affinity”: 1.1 z-score.
Under “fitted relative affinity”, `GACAGTATCGGACTGGGGACGTGCTAG` is recorded as -0.218 z-score.
`TCCCCTCTAGGTTCTCTGAAGGTGCTA`: “fitted relative affinity” 0.434 z-score.
`TTAGAGCTCCTCCTTCTCTAAGTGCTA` — result for “fitted relative affinity”: 0.583 z-score.
Under “fitted relative affinity”, `TCACTGCTCCTTCTGACACTGTGCTAG` is recorded as 1.55 z-score.
For `GACGGTATCGGGACTGGGAACGTGCTA`, “fitted relative affinity” read -0.599 z-score.
`TTAGTACTGGGTATCGGTTAGTGCTAG` — result for “fitted relative affinity”: 0.626 z-score.
Under “fitted relative affinity”, `GACGGTATCGGGTATCGGGAGGTGCTA` is recorded as -0.0912 z-score.
`GACGGTCTCGGTTTCGTGACGTGCTAG` — result for “fitted relative affinity”: 2.7 z-score.

Block 2 — method: protein-binding microarray; form: double-stranded DNA, one strand shown; medium: in vitro; tested at: 0.8 µM; notes: whole 60-bp probe, no competitor; reading: higher = stronger binding; shared flanks, not repeated: … GTCTTGATTCGCTTGACGCTGCTG
Target: Centromere-binding protein 1, full length, N-terminal tag (CBF1, Saccharomyces cerevisiae, UniProt P17106, residues 1-351)
Chain of UniProt P17106 (whole entry, looked up): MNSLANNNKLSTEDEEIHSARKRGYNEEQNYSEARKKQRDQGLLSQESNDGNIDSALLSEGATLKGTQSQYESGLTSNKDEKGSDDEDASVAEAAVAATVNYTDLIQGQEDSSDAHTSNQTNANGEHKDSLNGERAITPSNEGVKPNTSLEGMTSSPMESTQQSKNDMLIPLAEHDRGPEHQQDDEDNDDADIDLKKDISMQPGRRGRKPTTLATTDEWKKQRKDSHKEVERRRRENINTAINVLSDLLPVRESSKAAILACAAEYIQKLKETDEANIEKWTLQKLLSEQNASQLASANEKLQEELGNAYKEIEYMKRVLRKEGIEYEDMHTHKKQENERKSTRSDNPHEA
`CTAAAACAATGGAAACATCAGAAAGATATTTATTTC` has a fluorescence intensity of 617 a.u.
`CTATGGGTATACAATCACGTGTACTATCAAATATTC` gave a fluorescence intensity of 9380 a.u.
`GAATTAAAGTAGATTCTCCTGATGACCCATTCATAG` has a fluorescence intensity of 537 a.u.
For `CCTAACTACTATATCCACCTGCCATAGCTTCGTACA`, the fluorescence intensity was 523 a.u.
`CTATGTTCATGAGTACACATGATTCCAAGAAAGTTC` has a fluorescence intensity of 1030 a.u.
`CCTAACTACTATAATCACGCTTCATAGCTTCGTACA` has a fluorescence intensity of 649 a.u.
For `GAATTGTTCCACGATCACCTCATATCACCGTTATAG`, the fluorescence intensity was 501 a.u.
`TGTACGAAGCTATCCCTCACCTTTATAGTAGTTAGG` gave a fluorescence intensity of 497 a.u.
`CCTAACTACTATAAACACATGACATAGCTTCGTACA` gave a fluorescence intensity of 1200 a.u.
`GAACTTCGTTCGAAAAACATCAGAGCCGTACTGTAG` gave a fluorescence intensity of 527 a.u.
`CTAGGAGGTTCTGAACGCATGACATGCTCCTCTTTC` has a fluorescence intensity of 689 a.u.
`TGTACGAAGCTATGTCATGTAATTATAGTAGTTAGG` gave a fluorescence intensity of 500 a.u.
`CTATAAATACTAGGTCAGATGAATAAAGAGCAGTTC` gave a fluorescence intensity of 648 a.u.
With `TGTACGAAGCTATCATACGTGCATATAGTAGTTAGG` the fluorescence intensity was 533 a.u.
For `GAATTCGTAAAACGTGACGACTTTCATAATCTCTAG`, the fluorescence intensity was 3540 a.u.
`GAAGCTTTTGTAGAACATGTGGCTGTTTCTGTATAG` gave a fluorescence intensity of 747 a.u.
With `CTAGCAACACACGTAATCATGACTAATGGTTGCTTC` the fluorescence intensity was 547 a.u.
The fluorescence intensity of `CTACTTTATTTATCCAACGTGAACAAGTACTTTTTC` is reported as 740 a.u.
The fluorescence intensity of `GAAGTATTGATCAATTACGTGAGTCAGCTTTTTTAG` is reported as 522 a.u.

Block 3 — method: RNA Bind-n-Seq; form: RNA; medium: in vitro; tested at: not given; baseline: input RNA pool; reading: higher = stronger binding
Target: RING finger protein unkempt homolog, zinc fingers 1-6, GST-SBP tag (UNK, Homo sapiens, UniProt Q9C0B0, residues 30-357)
Notes: RNA with constant flanks, human and mouse sites, ends assumed
Shared flanks, not repeated: GGGAGUUCUACAGUCCGACGAUC … CAACAGAGGAUUGAGCAUCA
Residues (chain): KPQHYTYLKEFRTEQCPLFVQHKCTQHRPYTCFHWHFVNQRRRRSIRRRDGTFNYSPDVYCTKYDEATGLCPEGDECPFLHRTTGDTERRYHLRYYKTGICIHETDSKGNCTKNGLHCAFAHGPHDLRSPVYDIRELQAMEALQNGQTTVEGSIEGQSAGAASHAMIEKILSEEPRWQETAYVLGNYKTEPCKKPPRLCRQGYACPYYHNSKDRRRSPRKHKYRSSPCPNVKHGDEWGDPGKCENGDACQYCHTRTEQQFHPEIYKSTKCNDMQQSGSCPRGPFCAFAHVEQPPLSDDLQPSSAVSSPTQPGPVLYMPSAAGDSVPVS
`AGAGAAGAGUUGGUUGAUCGUGUUUUUGAUGAAAGCCUCAACUUCCGAAAGAUUCCUCCAUUAGUUCAUUCCAAAACACCAGAAGGAAACAACGGUCGAUCUGGUGAUCCAAGACCUCAA` gave a bound/input enrichment of 0.213 ratio.
`GUGUGGCGCGGGGCGGUGCGUGACUACCAGGAGCGCGUGGCUCACAUGGAGAGCUCGCUGGGCCAGGCCCGCGAGCGUCUGGGCCAAGCCGUGCGGGGCGCUCGGGAGAGUCGCUUAGAG` gave a bound/input enrichment of 0.118 ratio.
For `GACAGUGAAGGCCCACUGUGUGAAUUGCUUUUUUUCUUCCUGACUGCAAUCUUCCAGGCGAUGGCUGAAGAAGAGGAGGAAGUAGCCAAAGAGCAGAUAACUGAUGCUGACACCAAAGAU`, the bound/input enrichment was 0.0799 ratio.
With `GUCAUUGUCAUUCCGCAGUCCUCUCUCUCCACCAAUGCUGUUGUGGUGGAUCUUGGGCUAAUUAGAGUUCACAAUCGGUUCAGUCUGGUGUCUGGAGAAGACACUGCAAAUCCUCCAGUG` the bound/input enrichment was 0.266 ratio.
`GAAGUCACCUCAAAGCGAGCACAUAUGCUGAUUGACAUGCACUUUCGGAGUCUGCGCACUAAGUUGUCUCUGAUAAUGAGAAAUGAAGAAGCUAGUAAGCAGCUGGAGAGUUCAAGGCAG` gave a bound/input enrichment of 0.195 ratio.
With `UGCCUUGCUUUCCACCCAACAGAACAGAUCCUGGCUUCUGGUUCAAGGGAUUAUACUCUUAAAUUAUUUGAUUAUUCCAAACCAUCAGCAAAAAGAGCCUUCAAAUACAUUCAGGAAGCU` the bound/input enrichment was 0.392 ratio.
For `CCAAAAGCAGUGGUUUCUCCUCCAAAGUUUGUAUUUGGUUCAGAGUCUGUUAAAAGCAUUUUUAGUAGUGAAAAAUCAAAACCAUUUGCAUUCGGCAACAGUUCAGCCACUGGGUCUUUG`, the bound/input enrichment was 0.166 ratio.
`UCUUUGACCCAGAUUGUGUGACCCUGUGCCAGUGGGGGGGUUGAGGGUGGGACGGUGUCCGUGUUGUUGCUUUCCCACCCUGCAGCGCACUGGACUGAAGAGCUUCCCUCUUCCUACUGC` gave a bound/input enrichment of 0.243 ratio.

Block 4 — method: universal PBM; form: double-stranded DNA, one strand shown; medium: in vitro; tested at: 600 nM; reading: higher = stronger binding
Target: Sal-like protein 4, full length isoform A (SALL4, Homo sapiens, UniProt Q9UJQ4, residues 1-1053)
Chain of UniProt Q9UJQ4 (whole entry, looked up): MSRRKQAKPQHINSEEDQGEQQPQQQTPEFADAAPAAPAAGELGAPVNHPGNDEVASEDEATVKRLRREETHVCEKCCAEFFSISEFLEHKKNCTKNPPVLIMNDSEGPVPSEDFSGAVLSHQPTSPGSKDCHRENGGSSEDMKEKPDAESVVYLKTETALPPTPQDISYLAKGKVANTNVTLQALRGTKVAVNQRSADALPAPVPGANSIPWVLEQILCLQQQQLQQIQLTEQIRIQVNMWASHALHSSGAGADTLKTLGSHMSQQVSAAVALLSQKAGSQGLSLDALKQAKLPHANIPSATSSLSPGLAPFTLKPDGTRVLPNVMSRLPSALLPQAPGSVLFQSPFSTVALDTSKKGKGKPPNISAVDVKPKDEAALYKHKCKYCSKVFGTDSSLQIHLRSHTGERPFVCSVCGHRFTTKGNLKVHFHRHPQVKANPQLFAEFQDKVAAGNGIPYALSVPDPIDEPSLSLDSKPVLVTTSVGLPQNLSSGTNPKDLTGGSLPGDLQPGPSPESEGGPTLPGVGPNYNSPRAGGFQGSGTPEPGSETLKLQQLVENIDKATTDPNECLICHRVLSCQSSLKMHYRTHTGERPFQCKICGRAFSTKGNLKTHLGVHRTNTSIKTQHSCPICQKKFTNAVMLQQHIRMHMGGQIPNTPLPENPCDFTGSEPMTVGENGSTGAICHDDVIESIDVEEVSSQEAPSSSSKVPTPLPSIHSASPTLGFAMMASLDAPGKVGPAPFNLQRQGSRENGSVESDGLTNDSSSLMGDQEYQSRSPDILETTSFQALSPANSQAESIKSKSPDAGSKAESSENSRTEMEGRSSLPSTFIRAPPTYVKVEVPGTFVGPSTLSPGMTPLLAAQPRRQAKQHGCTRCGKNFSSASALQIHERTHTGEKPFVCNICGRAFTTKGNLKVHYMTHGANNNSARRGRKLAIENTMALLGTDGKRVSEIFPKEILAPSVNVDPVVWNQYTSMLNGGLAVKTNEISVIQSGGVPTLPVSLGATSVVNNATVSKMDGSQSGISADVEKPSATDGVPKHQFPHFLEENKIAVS
Notes: 8-mer, flanks averaged, mean of replicates
`CACCACCA` gave an E-score of -0.175.
With `GCTTTAGA` the E-score was 0.0835.
The E-score of `AAACTTAC` is reported as 0.17.
For `CTTTGGCC`, the E-score was -0.0766.
`CATAGAAG` gave an E-score of 0.192.
`CGGCTGAG` gave an E-score of -0.261.
The E-score of `CTGGCAGA` is reported as -0.108.
The E-score of `ATGCGTAG` is reported as 0.0507.
With `AGGTCCAG` the E-score was -0.179.
`GACCACCC` has an E-score of -0.339.
`GCAGCGAA` gave an E-score of -0.19.
`AACTGTTA` gave an E-score of 0.22.
For `GTTGTTAA`, the E-score was 0.246.
`AGAGGGTA` has an E-score of -0.064.
With `AATAAGCT` the E-score was 0.254.
`TCCCGACA` has an E-score of 0.0608.
With `CCACTAGG` the E-score was -0.268.
